Experimental data collected from several papers.
Each numbered part is a random draw from the data of one study; scales do not carry over between parts. Substitutions count along the parent as printed.

Block 1
Target: Cyclic AMP-responsive element-binding protein 1 (CREB1, Homo sapiens, UniProt P16220, residues 1-327, full length assumed)
Sequence of UniProt P16220 (whole entry, looked up): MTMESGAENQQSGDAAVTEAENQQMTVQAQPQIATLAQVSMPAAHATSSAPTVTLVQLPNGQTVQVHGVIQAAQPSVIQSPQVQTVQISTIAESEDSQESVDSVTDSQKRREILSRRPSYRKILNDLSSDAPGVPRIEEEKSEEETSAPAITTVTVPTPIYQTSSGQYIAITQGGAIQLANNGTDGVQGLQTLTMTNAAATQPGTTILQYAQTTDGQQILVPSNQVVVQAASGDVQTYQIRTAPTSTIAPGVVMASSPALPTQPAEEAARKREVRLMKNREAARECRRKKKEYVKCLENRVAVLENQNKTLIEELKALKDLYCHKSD
Method: protein-binding microarray
Form: double-stranded DNA, one strand shown
Medium: in vitro
Concentration: not given
Setting: k-mer, scored over probes, only values ≥0.25
Direction: higher = stronger binding
Endpoint: E-score
ATTACGC: 0.353
ACGACAT: 0.27
CGTAATA: 0.385
TAGATGA: 0.26
ACATACG: 0.267
CGTCACA: 0.487
ATAATGA: 0.27
ACGTCAT: 0.496
GTCATCA: 0.394
ACTGACG: 0.307
AATAACG: 0.335
TGACGAA: 0.378
ATCATAA: 0.268
ACTATGG: 0.261
ACATGAT: 0.256

Block 2
Target: CCNE1, cyclin fold, Cln2 fusion (human)
Method: yeast growth competition, sequencing
Medium: yeast
Setting: strong parent motif
Relative to: not given
Direction: higher = stronger binding
Endpoint: normalised enrichment score
Starting sequence: PKN2 docking peptide (human); VSAVRKLDFSDTM; partner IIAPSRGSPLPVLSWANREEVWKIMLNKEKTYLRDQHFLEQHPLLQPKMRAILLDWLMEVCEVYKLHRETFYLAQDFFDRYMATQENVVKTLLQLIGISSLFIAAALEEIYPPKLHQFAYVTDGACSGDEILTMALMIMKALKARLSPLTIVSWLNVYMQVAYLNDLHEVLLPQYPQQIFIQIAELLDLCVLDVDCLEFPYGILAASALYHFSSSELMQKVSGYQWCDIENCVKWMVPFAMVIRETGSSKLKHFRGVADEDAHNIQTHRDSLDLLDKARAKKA
VSARRKLDFSDTM [V4R]: 5.56
VSAHRKLDFSDTM [V4H]: 1.18
VSAVSKLDFSDTM [R5S]: 0.176
VSAVFKLDFSDTM [R5F]: 0.323
VSFVRKLDFSDTM [A3F]: 4.45
VSAARKLDFSDTM [V4A]: 3.85
VSWVRKLDFSDTM [A3W]: 4.84
VSAVRKLFFSDTM [D8F]: 4.53
VSHVRKLDFSDTM [A3H]: 5.75
VTAVRKLDFSDTM [S2T]: 5.45
VSAVRKLDFSMTM [D11M]: 5.15
VSAVNKLDFSDTM [R5N]: 0.228
VSAVRKLDFSDFM [T12F]: 5.98
VSAVRKLDQSDTM [F9Q]: -0.187
VSAVRKLDSSDTM [F9S]: 0.0661
VSANRKLDFSDTM [V4N]: 2.26
VSAVRKLDFSHTM [D11H]: 4.21
VEAVRKLDFSDTM [S2E]: 3.4
VSAVRKYDFSDTM [L7Y]: 0.0825
VSAVRKLDFSWTM [D11W]: 4.6
VSAVRKLDFSYTM [D11Y]: 5
VSAVRKLQFSDTM [D8Q]: 4.32
VDAVRKLDFSDTM [S2D]: 3.74
VSAVRKLDFSDNM [T12N]: 5.65

Block 3
Target: Histone acetyltransferase KAT6A, winged helix 2, GST fusion (KAT6A, Homo sapiens, UniProt Q92794, residues 85-181)
Method: protein binding microarray
Form: double-stranded DNA, one strand shown
Medium: in vitro
Concentration: not given
Setting: 8-mer, flanks averaged, mean of 2 arrays, mostly near background
Relative to: not given
Direction: higher = stronger binding
Endpoint: E-score
Residues (chain): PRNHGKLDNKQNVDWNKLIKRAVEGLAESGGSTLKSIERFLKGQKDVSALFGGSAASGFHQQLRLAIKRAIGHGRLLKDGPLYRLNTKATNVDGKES
GGTTGAAA: -0.103
AGGGGTTA: -0.275
AGGCGGGC: 0.125
CGGGAACG: 0.0608
GTCATGAA: 0.0112
AAGGCCTC: -0.122
ATCCGTGG: -0.0513
GGCGATTA: 0.00789
CCTTATAA: 0.0295
CCGCCATA: 0.135
ACAGGGTC: 0.0945
GGTAGGTA: -0.108
CTATATAG: -0.177
CTAGCGCA: -0.0851
ATTTTTTG: 0.0627
GGCTGCTA: 0.0561
AACACCCC: -0.135
GCTCTAAA: 0.0172
AGATCGCT: 0.0275
AGAGCGAC: -0.0345
CGGACGTC: 0.105
AAGTCGCC: -0.0297

Block 4
Target: Phosphate system positive regulatory protein PHO4, full length, GST-tagged (PHO4, Saccharomyces cerevisiae, UniProt P07270, residues 1-312)
Method: competition protein-binding microarray
Form: double-stranded DNA, one strand shown
Medium: in vitro
Concentration: 2 µM
Setting: whole 60-bp probe, lowest competitor level
Together with: Cbf1 competitor, 0.05 µM
Direction: higher = stronger binding
Endpoint: fluorescence intensity
Shared flanks, not repeated: … GTCTTGATTCGCTTGACGCTGCTG
Target sequence (chain): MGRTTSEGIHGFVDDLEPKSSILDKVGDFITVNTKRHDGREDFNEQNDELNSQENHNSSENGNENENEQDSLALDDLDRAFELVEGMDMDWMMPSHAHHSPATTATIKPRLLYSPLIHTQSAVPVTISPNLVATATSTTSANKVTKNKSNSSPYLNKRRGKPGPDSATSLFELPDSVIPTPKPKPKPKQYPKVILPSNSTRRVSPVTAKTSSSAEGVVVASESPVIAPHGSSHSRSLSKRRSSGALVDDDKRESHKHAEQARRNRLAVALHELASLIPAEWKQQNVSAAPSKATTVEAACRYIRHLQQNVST
CTTCTGTAAATTTCTCACGTGTTTTGACGCGCCCCG: 11400 a.u.
GTACATGTCCGCCATCACGTGGTGAAGATGTAGTAT: 19400 a.u.
CTTCTGTAAATTTTTCACGTGGTCTGACGCGCCCCG: 11600 a.u.
ATTGTTTACACCAATCGCGTGGGTAAAGGGGCTGGA: 9120 a.u.
CCTTAATAGGCGAGTCACGTGGAATGGTAGAACCGA: 16800 a.u.
AAATTACTAAGTTGGGAAGTGGGTGACGCCGTATGA: 4320 a.u.
AGCAGGATTTATAGGCGCGTGCGGACAGCCTTAGAC: 11900 a.u.
AAATTACTAAGTTGATACGTGGGTGACGCCGTATGA: 6870 a.u.
CTAACGAAGGTTTGAGGCGTGGGTGACAAGCCAAGT: 7690 a.u.
CTAACGAAGGTTTGAAAGGTGGGTGACAAGCCAAGT: 3900 a.u.
AAAGCGGTAATTTGATTTGTGGGTGCAGATATCTAT: 4820 a.u.
CTAACGAAGGTTTGGCTCGTGGGTGACAAGCCAAGT: 9980 a.u.
AGCTGCCGGCTCGGTCAGGTGGACGAAACAAAAAAG: 4250 a.u.
TGGTAATAACTGGAGCATGTGGCTGCGAATGTCCCG: 10200 a.u.
TGCGCAACAACTTGTCCAGTGGGTGTATGTCTAGAA: 4730 a.u.
AAATTACTAAGTTGTGACGTGGGTGACGCCGTATGA: 6090 a.u.

Block 5
Target: RNA binding protein fox-1 homolog 2, RRM domain, GST-SBP tag (RBFOX2, Homo sapiens, UniProt O43251-10, residues 100-194)
Method: RNA Bind-n-Seq
Form: RNA
Medium: in vitro
Concentration: 365 nM
Setting: natural RNA segment, single round, ends assumed
Relative to: no-protein control
Direction: higher = stronger binding
Endpoint: RBNS enrichment (R)
Shared flanks, not repeated: GGGAGUUCUACAGUCCGACGAUC … UGGAAUUCUCGGGUGCCAA
Target sequence (chain): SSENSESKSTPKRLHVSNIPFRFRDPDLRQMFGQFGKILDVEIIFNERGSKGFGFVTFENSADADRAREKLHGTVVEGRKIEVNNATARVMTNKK
UUCAGUCUCUCUACCACAUUCCAUGUAAACCUAUGGUGAAGUAACACCAGAAAAAAGAGCCUGAGAGUGGUCGCUUCCAUCUUCCACUCCCCUUGUUCUUGGGGGGAAAG: 0.305
AGAGCAAAGGUGAUUCCUGGUGGAGAAGGGGAAAAGCCCUUCUACCCUAGAGUCAUGCCUGGAUCCACAACUCCACAGGUAUCUGCAGCAUUUUCUACCUGGCCCUAUCG: 0.558
UCCUAAGGAGUAGAGAAUGGCACUGGGGAGGUCUGGAUGGAUCUGGUUUGUGUAGGAGUUCCCUGUAGAUAAAUUACUGGUCCCCCAACCACUAUCCCCAGUAUGUAAUG: 4.38
AGUAAUUGUCUUUUCAGAUGGAAACUAGAGAACUCUCCUAGGUGUGAUCUGCACUGGCCACUUGGCAGGCACAAGCUGCUUCCUUCCCCUCAGGUCUUAACCCUUCCCAG: 0.765
UGCCUUGAACUUAUUAACAUGGCCAUUAUAAGAAUAAAAUAUGUAGUUGUGUCUUAAUGGAAUUAAUAAAUGUCAUUUCACUACUGGUGUUCUGUUUCAAUGUAUAAGGA: 0.468
AUACCACCAUUUCAUCUGGCUAGUUCACCAUCACAACUGCAUUACCAAAAGGGGAUUUUUGAAAACGAGGAGUUGACCAAAAUAAUAUCUGAAGAUGAUUGCUUUUCCCU: 0.632
UUAGAAAUCAUCUUUGUGGGAAGACCUAAUUCUUCACAGCAAGGAUCUCAGGCAUGCCUUCUAGAUUUGUUCCCUCUGAGGGGCAGGAAUGAACUGUAGAAAUGUUUUAA: 6.8
UUUGAAAACAGCUAGCUCUGCAUUUUCAUACUAGUGUAGAGUUUGUUAUGAAAUAUUUUUACUAUGACUCCUUCAACAACUAAAUACGAACUGCCUGUUCUCUAAACCUC: 0.693
CACUGGCAGAGAGGUAAAGGGUGGGGCAUUGAGAAUGGAGGCUCCCAGGGUCCCUGCCCACUUCUGUUUUCCUAAUGUUUUUCUCUAUAAAGGGUCAGGCCCGUCAGCAU: 1.35
AGCUCACCAACUGAGCUCUGGACUGGGGACUACCGCUGACCAGGAGGGAAGCCUGGAGCCGCACCCGACUCAGCCACUCUGCGUCACAUUCGUCCUGUACCUAGGACCGG: 0.327
UAACAGAAAAAAAUUAUACAAUUUUGACAAUAUUAUUUUUCGUAUCAGGUUGCUGUUUAAUUUUGGAGGGGGUGGGGAAAUAGUUCUGGUGCCUUAACGCAUGGCUGGAA: 4.05
AGCAUAGUGGAAGAAAAAAUUUCAGAAGCAAAGUAGCCAAGCACAUGUUAGGAUGGCCACGAAUGCUUGGUCAGAGUCCUUCCUUCCCUUGCUCAGCAGCGGACUUACUC: 0.996
